Assay results pooled from the literature.
Parts stem from different laboratories: compare values within a part only. Values joined by “and” are separate records of one study, mostly repeats; a detail may differ.
Chain of UniProt Q16566 (whole entry, looked up): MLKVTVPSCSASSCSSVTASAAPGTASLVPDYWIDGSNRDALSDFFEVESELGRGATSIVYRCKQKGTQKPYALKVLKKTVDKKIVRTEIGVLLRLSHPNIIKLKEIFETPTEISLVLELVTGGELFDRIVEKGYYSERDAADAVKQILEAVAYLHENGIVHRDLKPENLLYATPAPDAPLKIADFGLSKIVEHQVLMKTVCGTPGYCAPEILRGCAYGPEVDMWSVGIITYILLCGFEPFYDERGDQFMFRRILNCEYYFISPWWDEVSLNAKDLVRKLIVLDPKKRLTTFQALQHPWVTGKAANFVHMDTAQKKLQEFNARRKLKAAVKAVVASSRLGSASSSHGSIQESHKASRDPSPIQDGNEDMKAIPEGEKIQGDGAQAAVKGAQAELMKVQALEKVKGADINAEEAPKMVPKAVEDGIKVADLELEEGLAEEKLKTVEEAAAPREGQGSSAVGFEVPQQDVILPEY
Chain of UniProt Q13153 (whole entry, looked up): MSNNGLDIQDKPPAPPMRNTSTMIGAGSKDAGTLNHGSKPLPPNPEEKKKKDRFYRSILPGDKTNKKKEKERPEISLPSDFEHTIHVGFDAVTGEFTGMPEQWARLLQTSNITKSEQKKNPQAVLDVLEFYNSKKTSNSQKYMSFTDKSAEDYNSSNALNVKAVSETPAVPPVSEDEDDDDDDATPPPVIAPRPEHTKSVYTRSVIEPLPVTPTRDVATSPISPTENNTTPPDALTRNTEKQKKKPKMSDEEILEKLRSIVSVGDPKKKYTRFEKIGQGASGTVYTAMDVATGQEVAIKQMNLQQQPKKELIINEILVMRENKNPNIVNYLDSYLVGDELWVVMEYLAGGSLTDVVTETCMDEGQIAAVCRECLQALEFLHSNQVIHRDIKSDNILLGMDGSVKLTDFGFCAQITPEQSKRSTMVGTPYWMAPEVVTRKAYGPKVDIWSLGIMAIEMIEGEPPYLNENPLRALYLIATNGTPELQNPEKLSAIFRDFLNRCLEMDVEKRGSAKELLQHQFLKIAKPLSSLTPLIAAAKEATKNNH
Chain of UniProt Q16832 (whole entry, looked up): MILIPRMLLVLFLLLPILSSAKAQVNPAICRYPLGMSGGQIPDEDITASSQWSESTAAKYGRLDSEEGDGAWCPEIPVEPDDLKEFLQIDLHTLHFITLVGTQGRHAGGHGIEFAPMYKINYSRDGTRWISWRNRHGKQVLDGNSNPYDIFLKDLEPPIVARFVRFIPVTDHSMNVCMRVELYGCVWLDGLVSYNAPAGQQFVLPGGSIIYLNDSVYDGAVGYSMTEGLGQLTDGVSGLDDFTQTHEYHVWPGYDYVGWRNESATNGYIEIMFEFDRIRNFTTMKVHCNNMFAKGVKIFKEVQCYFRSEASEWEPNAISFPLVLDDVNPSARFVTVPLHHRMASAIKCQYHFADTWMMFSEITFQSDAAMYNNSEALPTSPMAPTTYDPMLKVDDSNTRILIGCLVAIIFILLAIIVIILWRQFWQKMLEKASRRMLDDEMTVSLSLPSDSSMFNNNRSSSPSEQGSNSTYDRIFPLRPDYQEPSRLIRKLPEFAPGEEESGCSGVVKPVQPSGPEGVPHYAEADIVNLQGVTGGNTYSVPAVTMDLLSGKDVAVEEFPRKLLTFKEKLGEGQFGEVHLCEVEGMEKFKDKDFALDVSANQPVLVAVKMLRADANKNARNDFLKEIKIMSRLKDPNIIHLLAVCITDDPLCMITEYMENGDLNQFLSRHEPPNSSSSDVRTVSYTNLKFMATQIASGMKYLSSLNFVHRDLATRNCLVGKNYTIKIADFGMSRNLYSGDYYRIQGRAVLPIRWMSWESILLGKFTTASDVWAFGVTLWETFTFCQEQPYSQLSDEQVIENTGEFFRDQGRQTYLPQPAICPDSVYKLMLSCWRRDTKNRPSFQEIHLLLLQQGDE
Chain of UniProt Q9HAZ1 (whole entry, looked up): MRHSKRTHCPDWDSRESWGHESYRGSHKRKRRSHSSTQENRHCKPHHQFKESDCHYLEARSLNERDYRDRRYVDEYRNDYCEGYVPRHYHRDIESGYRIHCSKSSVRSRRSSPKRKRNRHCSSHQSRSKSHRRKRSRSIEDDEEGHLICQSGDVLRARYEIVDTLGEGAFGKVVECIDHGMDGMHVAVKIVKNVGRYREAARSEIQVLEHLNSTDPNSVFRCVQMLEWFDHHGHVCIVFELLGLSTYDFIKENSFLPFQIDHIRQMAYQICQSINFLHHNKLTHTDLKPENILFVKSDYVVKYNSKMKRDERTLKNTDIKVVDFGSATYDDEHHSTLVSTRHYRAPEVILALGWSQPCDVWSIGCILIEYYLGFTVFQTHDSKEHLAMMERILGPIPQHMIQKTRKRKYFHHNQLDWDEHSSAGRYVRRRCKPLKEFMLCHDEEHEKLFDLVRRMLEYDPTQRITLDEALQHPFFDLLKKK

Sample 1
Target: DNA polymerase theta, ATPase domain (POLQ, Homo sapiens, UniProt O75417)
Chain of UniProt O75417 (whole entry, unmodified, looked up): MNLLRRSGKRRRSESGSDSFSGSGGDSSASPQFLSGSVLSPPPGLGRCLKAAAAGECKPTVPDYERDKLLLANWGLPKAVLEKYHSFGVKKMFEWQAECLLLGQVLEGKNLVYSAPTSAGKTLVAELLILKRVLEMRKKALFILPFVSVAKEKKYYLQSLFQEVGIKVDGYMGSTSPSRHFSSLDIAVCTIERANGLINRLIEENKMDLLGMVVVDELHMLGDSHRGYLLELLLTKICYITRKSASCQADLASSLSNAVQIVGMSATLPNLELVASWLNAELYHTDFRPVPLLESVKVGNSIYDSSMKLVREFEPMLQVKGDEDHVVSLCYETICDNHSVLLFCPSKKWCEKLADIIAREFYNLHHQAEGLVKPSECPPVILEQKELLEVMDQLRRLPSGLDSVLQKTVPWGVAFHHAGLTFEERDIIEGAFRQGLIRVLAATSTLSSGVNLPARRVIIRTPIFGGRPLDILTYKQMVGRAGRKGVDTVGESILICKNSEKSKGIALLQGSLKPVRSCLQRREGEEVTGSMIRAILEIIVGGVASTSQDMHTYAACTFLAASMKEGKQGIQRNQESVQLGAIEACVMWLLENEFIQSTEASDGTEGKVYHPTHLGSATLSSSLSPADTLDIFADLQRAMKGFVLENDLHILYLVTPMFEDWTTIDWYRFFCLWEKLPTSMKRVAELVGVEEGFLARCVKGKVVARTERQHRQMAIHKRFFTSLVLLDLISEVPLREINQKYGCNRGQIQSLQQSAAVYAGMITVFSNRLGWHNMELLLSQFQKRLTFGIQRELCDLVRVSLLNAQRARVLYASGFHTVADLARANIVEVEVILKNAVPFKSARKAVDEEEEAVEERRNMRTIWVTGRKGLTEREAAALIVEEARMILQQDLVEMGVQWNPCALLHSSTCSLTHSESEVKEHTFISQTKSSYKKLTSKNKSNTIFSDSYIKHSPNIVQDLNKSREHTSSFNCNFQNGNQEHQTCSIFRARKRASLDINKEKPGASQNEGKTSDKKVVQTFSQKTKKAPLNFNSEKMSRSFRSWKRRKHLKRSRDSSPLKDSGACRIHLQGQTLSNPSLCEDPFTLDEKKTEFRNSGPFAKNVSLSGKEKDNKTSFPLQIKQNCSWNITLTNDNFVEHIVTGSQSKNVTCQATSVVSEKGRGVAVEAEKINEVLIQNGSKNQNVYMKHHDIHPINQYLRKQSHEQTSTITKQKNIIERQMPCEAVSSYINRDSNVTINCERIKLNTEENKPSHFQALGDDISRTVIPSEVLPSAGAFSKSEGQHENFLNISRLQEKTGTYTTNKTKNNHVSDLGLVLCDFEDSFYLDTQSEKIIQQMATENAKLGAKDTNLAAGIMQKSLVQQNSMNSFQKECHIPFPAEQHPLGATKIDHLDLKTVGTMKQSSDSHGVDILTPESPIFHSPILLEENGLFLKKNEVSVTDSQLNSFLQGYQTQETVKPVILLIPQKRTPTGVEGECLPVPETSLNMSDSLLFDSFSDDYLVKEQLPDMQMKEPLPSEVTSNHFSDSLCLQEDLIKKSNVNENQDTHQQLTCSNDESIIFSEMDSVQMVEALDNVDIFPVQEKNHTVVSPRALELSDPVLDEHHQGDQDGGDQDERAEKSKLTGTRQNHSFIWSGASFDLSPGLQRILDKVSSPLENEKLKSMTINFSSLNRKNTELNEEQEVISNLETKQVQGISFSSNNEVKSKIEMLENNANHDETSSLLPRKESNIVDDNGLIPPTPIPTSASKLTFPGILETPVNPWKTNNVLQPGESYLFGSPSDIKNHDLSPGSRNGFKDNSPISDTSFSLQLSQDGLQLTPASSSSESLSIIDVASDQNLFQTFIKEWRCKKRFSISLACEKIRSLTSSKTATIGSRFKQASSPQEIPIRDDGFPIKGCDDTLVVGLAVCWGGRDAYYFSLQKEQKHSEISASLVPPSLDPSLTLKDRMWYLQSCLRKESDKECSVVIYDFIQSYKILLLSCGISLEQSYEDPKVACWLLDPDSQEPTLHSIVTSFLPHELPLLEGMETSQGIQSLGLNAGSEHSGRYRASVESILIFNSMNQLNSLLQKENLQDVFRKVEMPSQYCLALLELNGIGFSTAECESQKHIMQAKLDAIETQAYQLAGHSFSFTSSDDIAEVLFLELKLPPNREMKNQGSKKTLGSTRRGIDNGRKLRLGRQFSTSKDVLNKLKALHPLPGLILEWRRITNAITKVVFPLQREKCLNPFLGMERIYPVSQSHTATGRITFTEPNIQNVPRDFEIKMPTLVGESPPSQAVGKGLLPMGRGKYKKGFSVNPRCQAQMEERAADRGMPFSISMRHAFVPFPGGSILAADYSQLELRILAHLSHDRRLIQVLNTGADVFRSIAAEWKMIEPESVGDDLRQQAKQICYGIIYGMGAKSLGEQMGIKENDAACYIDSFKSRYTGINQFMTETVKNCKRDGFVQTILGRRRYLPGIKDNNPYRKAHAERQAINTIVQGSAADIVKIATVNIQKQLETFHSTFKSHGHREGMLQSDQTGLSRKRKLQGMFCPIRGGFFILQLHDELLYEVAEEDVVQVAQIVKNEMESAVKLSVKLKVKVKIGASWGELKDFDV
Read-out: enzyme activity
Mode: inhibitor
Tested at: 77 µM
Relative to: untreated
For `Cc1cc2nc3c(=O)[nH]c(=O)nc-3n(C[C@H](O)[C@H](O)[C@H](O)CO)c2cc1C`, the remaining activity was 92.8%.
`CC1CCN=C(N)S1` (stereo not shown) gave a remaining activity of 97.6%.
With `C=CC[C@@H]1/C=C(\C)C[C@H](C)C[C@H](OC)[C@H]2O[C@@](O)(C(=O)C(=O)N3CCCC[C@H]3C(=O)O[C@H](/C(C)=C/[C@@H]3CC[C@@H](O)[C@H](OC)C3)[C@H](C)[C@@H](O)CC1=O)[C@H](C)C[C@@H]2OC` the remaining activity was 99.8%.
The remaining activity of `N[C@@H]1[C@H]2CN(c3nc4c(cc3F)c(=O)c(C(=O)O)cn4-c3ccc(F)cc3F)C[C@@H]12` is reported as 97.4%.
`CCN1CCCC(OC(=O)C(c2ccccc2)c2ccccc2)C1` (stereo not shown) has a remaining activity of 102%.
`C=CC[N+](C)(C)c1ccc(CCC(=O)CCc2ccc([N+](C)(C)CC=C)cc2)cc1` gave a remaining activity of 90.3%.
`CO[C@H]1/C=C/O[C@@]2(C)Oc3c(C)c(O)c4c(c3C2=O)C2=NC3(CCN(CC(C)C)CC3)NC2=C(NC(=O)/C(C)=C\C=C\[C@H](C)[C@H](O)[C@@H](C)[C@@H](O)[C@@H](C)[C@H](OC(C)=O)[C@@H]1C)C4=O` has a remaining activity of 98.3% and 95.9%.
`Nc1c(CC(=O)O)cccc1C(=O)c1ccccc1` has a remaining activity of 101%.
For `CN(C)CCC(c1ccc(Cl)cc1)c1ccccn1` (stereo not shown), the remaining activity was 99.4%.

Sample 2
SMILES: O=C(Nc1ccccc1)Nc1cccc(Oc2ccc3nccn3n2)c1
Technique: competitive binding panel
Tested at: 1 µM
Relative to: vehicle
It gave 100% for remaining binding (cAMP-dependent protein kinase catalytic subunit PRKX (PRKX, Homo sapiens, UniProt P51817)).
It gave 100% for remaining binding (Serine/threonine-protein kinase PAK 1 (PAK1, Homo sapiens, UniProt Q13153)).
For Ankyrin repeat and protein kinase domain-containing protein 1 (ANKK1, Homo sapiens, UniProt Q8NFD2): remaining binding read 100%.
Serine/threonine-protein kinase B-raf (BRAF, Homo sapiens, UniProt P15056) — remaining binding: 76%.
The remaining binding was 93% (Tyrosine-protein kinase JAK2 (JAK2, Homo sapiens, UniProt O60674); JH1 catalytic domain).
Wee1-like protein kinase (WEE1, Homo sapiens, UniProt P30291) — remaining binding: 100%.
It gave 71% for remaining binding (SRSF protein kinase 3 (SRPK3, Homo sapiens, UniProt Q9UPE1)).
It gave 94% for remaining binding (Phosphatidylinositol 4,5-bisphosphate 3-kinase catalytic subunit gamma isoform (PIK3CG, Homo sapiens, UniProt P48736)).
It gave 93% for remaining binding (Calcium/calmodulin-dependent protein kinase type IV (CAMK4, Homo sapiens, UniProt Q16566)).
The remaining binding was 100% (Tyrosine-protein kinase Blk (BLK, Homo sapiens, UniProt P51451)).

Sample 3
Structure (SMILES): COCCOc1nc(-c2ccc(Cl)nc2)nc2c1CN(C(=O)c1ncn3ccccc13)CC2
Tested at: 0.1 µM
The remaining binding was 100% (Serine/threonine-protein kinase PAK 1 (PAK1, Homo sapiens, UniProt Q13153); cell-free assay, competition with immobilised ligand).
It gave 100% for remaining binding (Mitogen-activated protein kinase kinase kinase 10 (MAP3K10, Homo sapiens, UniProt Q02779); cell-free assay, competition with immobilised ligand).
Cyclin-dependent kinase 19 (CDK19, Homo sapiens, UniProt Q9BWU1); competition binding — remaining binding: 63%.
The remaining binding was 79% (Serine/threonine-protein kinase 17A (STK17A, Homo sapiens, UniProt Q9UEE5); cell-free assay, competition with immobilised ligand).
The remaining binding was 100% (Tyrosine-protein kinase Fyn (FYN, Homo sapiens, UniProt P06241); cell-free assay, competition with immobilised ligand).
For Ephrin type-B receptor 4 (EPHB4, Homo sapiens, UniProt P54760); cell-free assay, competition with immobilised ligand: remaining binding read 100%.
The remaining binding was 88% (Proto-oncogene tyrosine-protein kinase receptor Ret (RET, Homo sapiens, UniProt P07949); cell-free assay, competition with immobilised ligand).
The remaining binding was 100% (Protein-tyrosine kinase 2-beta (PTK2B, Homo sapiens, UniProt Q14289); cell-free assay, competition with immobilised ligand).
For Tyrosine-protein kinase BTK (BTK, Homo sapiens, UniProt Q06187); cell-free assay, competition with immobilised ligand: remaining binding read 100%.
Phosphorylase b kinase gamma catalytic chain, skeletal muscle/heart isoform (PHKG1, Homo sapiens, UniProt Q16816); cell-free assay, competition with immobilised ligand — remaining binding: 100%.
For Phosphatidylinositol 4,5-bisphosphate 3-kinase catalytic subunit alpha isoform (PIK3CA, Homo sapiens, UniProt P42336, Q546K); cell-free assay, competition with immobilised ligand: remaining binding read 87%.
For Mitogen-activated protein kinase kinase kinase 9 (MAP3K9, Homo sapiens, UniProt P80192); cell-free assay, competition with immobilised ligand: remaining binding read 100%.

Sample 4
Compound: FC(F)(F)c1ccc(/C=C/c2nc(COc3ccc(CCCCn4ccnn4)cc3)co2)cc1
Read-out: enzyme activity
Mode: inhibitor
Tested at: 0.5 µM
Relative to: control
For Rho-associated protein kinase 1 (ROCK1, Homo sapiens, UniProt Q13464): remaining activity read 100%.
Hepatocyte growth factor receptor (MET, Homo sapiens, UniProt P08581) — remaining activity: 95.1%.
For Serine/threonine-protein kinase PLK3 (PLK3, Homo sapiens, UniProt Q9H4B4): remaining activity read 107%.
For Myosin-IIIb (MYO3B, Homo sapiens, UniProt Q8WXR4): remaining activity read 93.7%.
Ribosomal protein S6 kinase alpha-4 (RPS6KA4, Homo sapiens, UniProt O75676) — remaining activity: 105%.
It gave 97.7% for remaining activity (Calcium/calmodulin-dependent protein kinase type IV (CAMK4, Homo sapiens, UniProt Q16566)).
For Cyclin-dependent kinase 9, with cyclin K (CDK9, Homo sapiens, UniProt P50750): remaining activity read 105%.
For Tyrosine-protein kinase TXK (TXK, Homo sapiens, UniProt P42681): remaining activity read 101%.
Serine/threonine-protein kinase PAK 3 (PAK3, Homo sapiens, UniProt O75914) — remaining activity: 101%.
The remaining activity was 97.9% (MAP/microtubule affinity-regulating kinase 4 (MARK4, Homo sapiens, UniProt Q96L34)).
Dual specificity protein kinase CLK4 (CLK4, Homo sapiens, UniProt Q9HAZ1) — remaining activity: 101%.
For G protein-coupled receptor kinase 4 (GRK4, Homo sapiens, UniProt P32298): remaining activity read 102%.
It gave 96.8% for remaining activity (Misshapen-like kinase 1 (MINK1, Homo sapiens, UniProt Q8N4C8)).
The remaining activity was 96.6% (Calcium/calmodulin-dependent protein kinase type 1B (PNCK, Homo sapiens, UniProt Q6P2M8)).
Discoidin domain-containing receptor 2 (DDR2, Homo sapiens, UniProt Q16832) — remaining activity: 101%.

Excerpt of the above (sample 1):
For `Cc1cc2nc3c(=O)[nH]c(=O)nc-3n(C[C@H](O)[C@H](O)[C@H](O)CO)c2cc1C`, the remaining activity was 92.8%.
`CC1CCN=C(N)S1` (stereo not shown) gave a remaining activity of 97.6%.
With `C=CC[C@@H]1/C=C(\C)C[C@H](C)C[C@H](OC)[C@H]2O[C@@](O)(C(=O)C(=O)N3CCCC[C@H]3C(=O)O[C@H](/C(C)=C/[C@@H]3CC[C@@H](O)[C@H](OC)C3)[C@H](C)[C@@H](O)CC1=O)[C@H](C)C[C@@H]2OC` the remaining activity was 99.8%.
The remaining activity of `N[C@@H]1[C@H]2CN(c3nc4c(cc3F)c(=O)c(C(=O)O)cn4-c3ccc(F)cc3F)C[C@@H]12` is reported as 97.4%.
`CCN1CCCC(OC(=O)C(c2ccccc2)c2ccccc2)C1` (stereo not shown) has a remaining activity of 102%.
